Earlier results that unrelated publications cite.
Each numbered part shows a few of the values that one paper quotes.
UniProt O42275, sequence (whole entry, looked up): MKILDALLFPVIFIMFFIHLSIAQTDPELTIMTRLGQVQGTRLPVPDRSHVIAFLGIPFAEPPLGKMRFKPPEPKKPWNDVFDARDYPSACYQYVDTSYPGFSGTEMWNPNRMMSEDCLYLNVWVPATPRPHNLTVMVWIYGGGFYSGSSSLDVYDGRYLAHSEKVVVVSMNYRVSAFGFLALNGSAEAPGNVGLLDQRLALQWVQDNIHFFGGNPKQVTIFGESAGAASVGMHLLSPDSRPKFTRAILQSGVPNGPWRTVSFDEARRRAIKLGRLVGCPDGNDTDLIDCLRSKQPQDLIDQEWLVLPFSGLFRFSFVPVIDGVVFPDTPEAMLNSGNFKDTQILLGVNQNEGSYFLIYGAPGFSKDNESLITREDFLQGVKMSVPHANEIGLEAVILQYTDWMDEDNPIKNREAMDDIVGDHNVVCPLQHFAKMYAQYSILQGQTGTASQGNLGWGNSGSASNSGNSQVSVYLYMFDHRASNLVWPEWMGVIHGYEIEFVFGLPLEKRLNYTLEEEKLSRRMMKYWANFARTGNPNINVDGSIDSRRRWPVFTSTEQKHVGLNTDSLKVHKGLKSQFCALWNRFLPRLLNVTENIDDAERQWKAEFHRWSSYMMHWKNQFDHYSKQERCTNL
UniProt P30994, sequence (whole entry, looked up): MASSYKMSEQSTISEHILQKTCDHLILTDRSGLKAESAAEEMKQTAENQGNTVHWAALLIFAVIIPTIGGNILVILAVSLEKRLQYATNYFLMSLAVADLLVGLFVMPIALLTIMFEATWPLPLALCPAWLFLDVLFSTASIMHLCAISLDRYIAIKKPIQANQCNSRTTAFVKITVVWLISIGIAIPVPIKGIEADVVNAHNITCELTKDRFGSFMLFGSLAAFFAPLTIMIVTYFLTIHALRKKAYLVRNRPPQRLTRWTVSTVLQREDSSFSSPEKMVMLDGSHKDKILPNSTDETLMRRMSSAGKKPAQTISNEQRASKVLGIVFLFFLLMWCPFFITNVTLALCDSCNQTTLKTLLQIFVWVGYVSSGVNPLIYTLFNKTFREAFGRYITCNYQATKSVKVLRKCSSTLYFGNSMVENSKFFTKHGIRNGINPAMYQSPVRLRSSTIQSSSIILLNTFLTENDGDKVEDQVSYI
UniProt C7C422, sequence (whole entry, looked up): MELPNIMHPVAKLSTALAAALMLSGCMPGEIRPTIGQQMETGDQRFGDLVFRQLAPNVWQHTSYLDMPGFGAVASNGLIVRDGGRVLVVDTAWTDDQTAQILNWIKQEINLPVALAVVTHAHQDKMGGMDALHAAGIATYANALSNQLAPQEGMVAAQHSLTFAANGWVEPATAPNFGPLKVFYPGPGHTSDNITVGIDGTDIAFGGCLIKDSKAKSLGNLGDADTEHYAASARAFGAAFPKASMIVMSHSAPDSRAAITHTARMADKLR
UniProt P40763, sequence (whole entry, looked up): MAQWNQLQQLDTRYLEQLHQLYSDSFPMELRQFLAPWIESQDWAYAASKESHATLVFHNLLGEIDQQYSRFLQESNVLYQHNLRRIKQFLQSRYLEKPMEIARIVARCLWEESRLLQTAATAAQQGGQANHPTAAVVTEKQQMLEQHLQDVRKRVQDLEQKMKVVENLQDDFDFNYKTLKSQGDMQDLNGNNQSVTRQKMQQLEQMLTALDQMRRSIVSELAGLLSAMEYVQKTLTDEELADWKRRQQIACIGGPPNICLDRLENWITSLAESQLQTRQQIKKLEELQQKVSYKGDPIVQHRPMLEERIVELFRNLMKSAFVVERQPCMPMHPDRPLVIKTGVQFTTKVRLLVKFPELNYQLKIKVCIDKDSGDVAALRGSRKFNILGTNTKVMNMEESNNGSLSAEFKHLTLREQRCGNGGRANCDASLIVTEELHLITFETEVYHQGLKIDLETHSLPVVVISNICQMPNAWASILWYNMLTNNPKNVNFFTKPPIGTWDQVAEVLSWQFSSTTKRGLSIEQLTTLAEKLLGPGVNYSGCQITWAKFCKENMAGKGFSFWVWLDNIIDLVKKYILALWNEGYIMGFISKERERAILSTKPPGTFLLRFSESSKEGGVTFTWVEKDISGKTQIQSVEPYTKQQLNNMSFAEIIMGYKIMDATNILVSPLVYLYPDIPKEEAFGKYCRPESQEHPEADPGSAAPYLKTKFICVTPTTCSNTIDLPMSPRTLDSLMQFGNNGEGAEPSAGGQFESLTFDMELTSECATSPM
UniProt P04789, sequence (whole entry, looked up): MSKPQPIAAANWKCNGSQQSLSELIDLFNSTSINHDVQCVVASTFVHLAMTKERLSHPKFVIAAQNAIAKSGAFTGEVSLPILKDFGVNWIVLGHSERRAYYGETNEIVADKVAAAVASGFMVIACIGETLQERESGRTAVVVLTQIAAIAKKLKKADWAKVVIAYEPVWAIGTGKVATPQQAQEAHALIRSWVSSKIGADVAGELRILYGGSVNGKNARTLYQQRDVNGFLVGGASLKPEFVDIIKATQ
UniProt P42336, sequence (whole entry, looked up): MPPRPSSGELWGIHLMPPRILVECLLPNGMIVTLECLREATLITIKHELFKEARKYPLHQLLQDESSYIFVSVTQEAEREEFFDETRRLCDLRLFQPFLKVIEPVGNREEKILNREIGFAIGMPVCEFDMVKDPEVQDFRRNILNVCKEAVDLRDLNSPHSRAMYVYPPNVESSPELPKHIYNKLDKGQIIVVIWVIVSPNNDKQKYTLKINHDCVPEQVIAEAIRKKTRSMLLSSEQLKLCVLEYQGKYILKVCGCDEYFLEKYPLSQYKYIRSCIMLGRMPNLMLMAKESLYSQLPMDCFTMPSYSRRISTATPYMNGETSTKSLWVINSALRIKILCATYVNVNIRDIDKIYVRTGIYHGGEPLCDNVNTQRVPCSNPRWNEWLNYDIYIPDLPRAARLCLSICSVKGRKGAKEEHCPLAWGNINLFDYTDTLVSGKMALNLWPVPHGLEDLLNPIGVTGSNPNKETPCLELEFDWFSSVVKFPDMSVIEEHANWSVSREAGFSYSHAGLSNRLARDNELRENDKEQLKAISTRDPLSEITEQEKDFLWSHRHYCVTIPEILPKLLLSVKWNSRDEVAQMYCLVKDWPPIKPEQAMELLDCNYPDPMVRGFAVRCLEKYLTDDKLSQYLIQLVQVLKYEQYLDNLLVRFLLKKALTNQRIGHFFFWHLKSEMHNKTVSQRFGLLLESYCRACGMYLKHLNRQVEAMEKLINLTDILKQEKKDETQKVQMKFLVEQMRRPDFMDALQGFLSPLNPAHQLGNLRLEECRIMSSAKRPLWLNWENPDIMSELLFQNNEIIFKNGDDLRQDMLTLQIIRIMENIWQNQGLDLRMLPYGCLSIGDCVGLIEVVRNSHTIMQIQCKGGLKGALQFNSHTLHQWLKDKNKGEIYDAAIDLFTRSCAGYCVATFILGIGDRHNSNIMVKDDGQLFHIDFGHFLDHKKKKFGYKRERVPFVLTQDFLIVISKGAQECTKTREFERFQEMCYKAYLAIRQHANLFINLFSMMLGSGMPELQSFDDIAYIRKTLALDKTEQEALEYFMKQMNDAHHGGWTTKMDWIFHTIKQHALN

Set 1 — observed: peptide-MHC binding; molecule type: peptide; quantity: IC50
Target: HLA class I histocompatibility antigen, A alpha chain, allele A*25:01 (Homo sapiens, UniProt P04439)
Molecule = MVRVLTVIKEY; value = 1290 nM
Molecule = HTAEIQQFF; value = 21 nM
Molecule = QLFPELECF; value = > 20000 nM
Molecule = DTVNRTHQY; value = 31 nM
Molecule = LSIIFGRSY; value = > 20000 nM
Molecule = DSPATLSAY; value = 78 nM
Molecule = SLLERGQQLGV; value = > 20000 nM
Molecule = FSSCPVAY; value = > 20000 nM
Molecule = WQDGGWQSV; value = > 20000 nM
Molecule = ESEVDDPAM; value = > 20000 nM
Molecule = ETWVETWAF; value = 759 nM
Molecule = ILNRETLLDFV; value = > 20000 nM
Molecule = WLGWGHAWV; value = > 20000 nM
Molecule = VALFSSCPVAY; value = > 20000 nM

Further values, each from its own experiment
SMILES = O=C1c2c(O)cc(O)cc2OC(c2ccc(O)c(O)c2)C1O (stereo not shown); tested on = Acetylcholinesterase (ache, Electrophorus electricus, UniProt O42275); quantity = Ki; value = 16.7 nM
SMILES = COc1cc(C[C@@H](C)N)c(OC)cc1I; tested on = 5-hydroxytryptamine receptor 2B (Rattus norvegicus, UniProt P30994); test = contraction, agonist; test system = rat stomach fundus; quantity = EC50; value = 11.9 nM
SMILES = CC(=O)N1CC[C@H]2CC[C@@H](C(=O)N[C@@H](CCC(N)=O)C(=O)NC(c3ccccc3)c3ccccc3)N2C(=O)[C@@H](NC(=O)c2cc3cc(C(F)(F)P(=O)(O)O)ccc3[nH]2)C1; tested on = Signal transducer and activator of transcription 3 (STAT3, Homo sapiens, UniProt P40763); test = binding; quantity = Ki; value = 14 nM
SMILES = CNC(=NC#N)NCCCCc1[nH]cnc1C; test = antinociception, hot plate test; test system = rat; setting = intracerebroventricular, 5 min; quantity = ED50; value = 105 nmol
SMILES = COC(=O)C[C@@H]1N=C(c2ccc(Cl)cc2)c2c(sc(C)c2C)-n2c(C)nnc21; tested on = Bromodomain-containing protein 4, BD2 (BRD4, Homo sapiens, UniProt O60885); test = biochemical; setting = bromodomain 2; quantity = IC50; value = 46 nM
SMILES = COc1ccc(-c2cc(=O)c3c(O)c(OC)c(O[C@@H]4O[C@H](CO[C@@H]5O[C@@H](C)[C@H](O)[C@@H](O)[C@H]5O)[C@@H](O)[C@H](O)[C@H]4O)cc3o2)cc1; tested on = 3CL protease; test = enzyme activity, inhibitor; quantity = IC50; value = 38000 nM
SMILES = CCc1c2c(nc3ccc(OC(=O)N4CCC(N5CCCCC5)CC4)cc13)-c1cc3c(c(=O)n1C2)COC(=O)[C@]3(O)CC; test = item: maternal and offspring development; test system = rat; setting = perinatal and lactation dosing; quantity = NOAEL; value = 1.2 mg/kg
SMILES = CC(C)(O/N=C(\C(=O)N[C@@H]1C(=O)N2C(C(=O)[O-])=C(C[N+]3(CCNC(=O)c4ccc(O)c(O)c4Cl)CCCC3)CS[C@H]12)c1csc(N)n1)C(=O)O; tested on = Metallo-beta-lactamase type 2 (blaNDM-1, Klebsiella pneumoniae, UniProt C7C422); test = substrate; quantity = kcat; value = 11 s⁻¹
SMILES = CN1COCN(Cc2cnc(Cl)s2)/C1=N\[N+](=O)[O-]; test system = test soil; setting = 0.12 mg/kg nominal, 28 days; quantity = measured soil concentration; value = 0.08 mg/kg dry soil
SMILES = Nc1ncc(-c2nc(N3CCOCC3)nc(N3CCOCC3)n2)c(C(F)F)n1; tested on = Phosphatidylinositol 4,5-bisphosphate 3-kinase catalytic subunit alpha isoform (PIK3CA, Homo sapiens, UniProt P42336); test = KinomeScan competition binding; setting = 10 µM; quantity = remaining binding; value = 0%
SMILES = CCCCCc1cc(O)c2c(c1)OC(C)(C)[C@@H]1CCC(C)=C[C@@H]21; tested on = CYP2C19, human; test = enzyme activity, inhibitor; test system = human liver microsomes; setting = 10 µM; quantity = inhibition; value = inhibited
SMILES = S=C(NC1CCCCC1)N1CCC(c2cnc[nH]2)CC1; test = tail flick test; test system = rat; setting = intracerebroventricular, 340 nmol; quantity = antinociceptive activity; value = inactive
SMILES = C=C(C)[C@@H]1CCC(C)=C[C@H]1c1c(O)cc(CCCCC)cc1O; tested on = CYP2D6 human; test system = human liver microsomes; setting = 10 µM; quantity = inhibition; value = inhibited
SMILES = O=C[C@H](O)COP(=O)(O)O; tested on = Triosephosphate isomerase, glycosomal (Trypanosoma brucei brucei, UniProt P04789); test = substrate; setting = pH 9.3; quantity = Km; value = 340 µM

A few entries again (set 1):
Molecule = QLFPELECF; value = > 20000 nM
Molecule = DTVNRTHQY; value = 31 nM
Molecule = LSIIFGRSY; value = > 20000 nM
Molecule = DSPATLSAY; value = 78 nM
Molecule = SLLERGQQLGV; value = > 20000 nM
